# Measured values gathered from unrelated publications.
# Parts stem from different laboratories: compare values within a part only. Positions count from the first letter of the parent shown.

# Set 1 — method: DHFR PCA, deep sequencing; sample: yeast; together with: (+)-ABA 17 µM; baseline: wild-type fitted maximum; reading: higher = stronger binding
# Target: ABI1, truncated, D143A, DHFR fusion (Arabidopsis thaliana)
# Setting: methotrexate growth selection, single substitutions
# Starting sequence: PYL1, truncated, DHFR fusion (Arabidopsis thaliana); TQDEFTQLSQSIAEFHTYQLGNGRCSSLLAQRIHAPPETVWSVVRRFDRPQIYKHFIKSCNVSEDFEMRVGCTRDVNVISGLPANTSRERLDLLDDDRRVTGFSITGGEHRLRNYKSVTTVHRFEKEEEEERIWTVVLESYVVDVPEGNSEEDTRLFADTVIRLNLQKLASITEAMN; partner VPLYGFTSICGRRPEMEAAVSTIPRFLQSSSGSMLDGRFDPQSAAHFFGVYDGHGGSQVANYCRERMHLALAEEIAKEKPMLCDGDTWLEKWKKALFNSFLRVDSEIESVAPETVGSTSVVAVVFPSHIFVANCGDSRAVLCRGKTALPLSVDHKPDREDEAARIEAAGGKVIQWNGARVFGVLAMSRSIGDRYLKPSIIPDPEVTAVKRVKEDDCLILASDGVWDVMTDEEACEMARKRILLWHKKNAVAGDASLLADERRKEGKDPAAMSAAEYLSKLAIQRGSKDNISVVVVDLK
Change,relative binding score [%]
F5K,68.8
A170P,-7
P50D,-11.4
D92E,65.2
Q167L,78.7
R49E,76.9
V100G,-1.44
N77Q,92.6
W41C,19.4
N22G,81.2
N77P,-7.48
I57S,5.26
G23T,57.6
L94Y,72.4
R111A,14.7
T101V,82.7
E125H,92.8
E151P,90.5
R24E,79.2
D75I,89.7
F157K,-23.9
V143K,-5.67
E14C,50.9
E67A,80.1
D97L,65.6

# Set 2 — method: RNA Bind-n-Seq; molecule type: RNA; sample: in vitro; tested at: 365 nM; baseline: no-protein control; reading: higher = stronger binding
# Target: RNA binding protein fox-1 homolog 2, RRM domain, GST-SBP tag (RBFOX2, Homo sapiens, UniProt O43251-10, residues 100-194)
# Setting: natural RNA segment, single round, ends assumed
# Shared flanks, not repeated: GGGAGUUCUACAGUCCGACGAUC … UGGAAUUCUCGGGUGCCAA
# Residues (chain): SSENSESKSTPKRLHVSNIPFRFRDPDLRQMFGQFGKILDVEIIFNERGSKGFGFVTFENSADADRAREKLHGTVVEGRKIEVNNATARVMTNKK
Sequence,RBNS enrichment (R)
GGCCAGGCCCCUCUGUCCAGAAGGAGCUGCCCUGAGGACCAUCUUAGCGGCCCUGUCCUCUUUUUCCGCCCAUUCUCCCUCGGGUCUCCCCAGAGGGGCCGGCGGGGGCU,0.291
AUUUGCCAUGAGUAUAGUUGAAAUCACCAUAGCAAACUCAGGGUAAGUGUGGGCUUUUGUUUCUUACAUUCCUCUGCAAUGGCCUGGCUGGCCUGGUGACCUCUAGGACC,0.342
AAAUUAUUUUAAAAGAAAUACAACAUCUUAUUCUUUAGCUUUCUUAAUCGGUGCUUUAUGGAGGCCAGUGUAACGUUACAUGACUCGUUGAGAAAGUUGAGGAAUUUCCU,0.531
CACAACUUGGACAAAAGUACACAGAAGAACCUUACUAUGAUAAUCUACUUGGAAUGUGGAUAAAUGUAAAAAGAAGAAAAGUUAGAAGAGCAAUAUGUUUCCUUCUCUGU,0.978
GUAAAGGGACAAACCGAGGAAGUAGAGGAAGCUGCGGCACUGUGACCCAUUCAAGGCUAGCACAGUUAAGAGAACUUCAGCUAAUUCUUAUUUUCCUGAGUUAGAUCCCA,0.345
CAACUGGAUGGUUUUUGAUUGAAGCCUAGAACAUCUGUAGAGACAAACUCUACCCAGUCUUUUCUAGACCCUCAACUAUCUCCAGUGUUGUUGUUUAAUCGUAGCCGGAU,0.383
GCAUACAAGCAUUUGCAACAAGUAUUCAAAUAGAGGCUCACAGCGGCAUAAGCUGGACUUUGUCGCCACUAGAUGACAAGAUGGUAUACCUAAGCUAACCACACGUGUGU,0.6
GAUGGCUGCCAGUUUCUGCUGAUACACAGGUAGGAUGGGACCCUUCAUGAAUAUCUGACUUUAAUAAGUUGGUAAGGAUAUAUUUUUUUGUCUAUGUUCUGUUUCAACUU,0.351
UGUGCCAUUUUCCCAACUUGGCGUUUCACUAAAUGCAGCUGAUCUCUCUCUCUGUGCACUCGUGAUCCAUGUUGAACAAUACAUGUAGGUUCUUUUUCCACGCAAUGUAA,0.358
AACUCAGGUAAUUUCCAUUUCUGGUUUUAUAUUCUCUGUAUCUCCUGCCUGGGUGUCACUUUCUAGACAGUAAGGCGCUCCACUGCUUGCUGUCUGAGAUAUCCUUCAUA,0.197
AUCACUGAAAAUAUGACUAAUAAAUGUCUCUUCCUUUUUCUUCCUGUCUCCAUCCCCAUGCCUUGUUCUAACUUGCAUACUUGUCCUUUCUGCUCGAAGCUGUCACUUCC,2.74
CAUGGUGCUCAAUAUCUUGGCCAAAUAAGUUACUUCCCUUGAAUAUCCAGGAAUUUUAAACUAAAGCAAUGAGUUGUCUGUCACCUUGCCCUGGAACUCCAGCGUAACCU,0.623

# Set 3 — method: universal PBM; molecule type: double-stranded DNA, one strand shown; sample: in vitro; tested at: 600 nM; reading: higher = stronger binding
# Target: Sal-like protein 4, full length isoform A (SALL4, Homo sapiens, UniProt Q9UJQ4, residues 1-1053)
# UniProt Q9UJQ4, sequence (whole entry, looked up): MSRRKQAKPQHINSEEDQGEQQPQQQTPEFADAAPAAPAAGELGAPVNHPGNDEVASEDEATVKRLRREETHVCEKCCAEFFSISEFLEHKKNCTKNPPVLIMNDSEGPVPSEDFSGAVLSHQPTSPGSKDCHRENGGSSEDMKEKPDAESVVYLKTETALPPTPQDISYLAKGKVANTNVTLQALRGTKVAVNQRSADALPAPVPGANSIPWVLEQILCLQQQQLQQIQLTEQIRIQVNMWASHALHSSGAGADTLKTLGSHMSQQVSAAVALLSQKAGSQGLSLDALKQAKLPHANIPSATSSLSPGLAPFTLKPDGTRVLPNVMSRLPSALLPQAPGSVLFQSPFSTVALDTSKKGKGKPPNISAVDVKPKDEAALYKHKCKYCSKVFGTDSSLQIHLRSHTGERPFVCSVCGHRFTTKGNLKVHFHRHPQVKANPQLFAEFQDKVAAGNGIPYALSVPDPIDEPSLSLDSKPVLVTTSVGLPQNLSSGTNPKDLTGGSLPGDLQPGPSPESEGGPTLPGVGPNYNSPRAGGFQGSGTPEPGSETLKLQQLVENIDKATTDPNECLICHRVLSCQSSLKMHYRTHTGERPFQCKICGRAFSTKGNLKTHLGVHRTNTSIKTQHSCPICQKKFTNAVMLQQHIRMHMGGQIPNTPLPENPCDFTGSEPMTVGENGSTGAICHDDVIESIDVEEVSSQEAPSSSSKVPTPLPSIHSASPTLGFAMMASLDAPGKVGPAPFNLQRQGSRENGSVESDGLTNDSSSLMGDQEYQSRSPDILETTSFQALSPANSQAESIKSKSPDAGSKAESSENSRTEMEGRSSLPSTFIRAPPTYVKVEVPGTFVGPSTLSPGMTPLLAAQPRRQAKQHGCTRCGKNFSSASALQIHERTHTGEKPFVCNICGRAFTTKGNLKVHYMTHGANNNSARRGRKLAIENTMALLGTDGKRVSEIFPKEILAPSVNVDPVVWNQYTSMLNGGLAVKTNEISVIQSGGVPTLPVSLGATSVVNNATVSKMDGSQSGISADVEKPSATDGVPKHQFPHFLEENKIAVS
# Setting: 8-mer, flanks averaged, mean of replicates
Sequence,E-score
TCGGTGCA,-0.193
CAAAAGGC,-0.213
ACTGAACC,-0.204
CTTACGAC,-0.0417
ACTTCCCG,-0.0505
ACGTTGCC,-0.2
AGCTAATG,-0.00519
ACAAGCGT,-0.116
AGAGATTC,0.0962
GGTAATAC,0.171
GGGCCGTA,-0.233
CCTAAGAG,-0.186
ACGGGGGG,-0.337
CCGGGGCA,-0.3
AACCGCCA,-0.219
AACAAGGG,-0.0474
AGTAGAAA,0.176
CTATTATC,0.334
AAAAGATG,0.177
AGGTGATA,-0.0114
GGACTTAC,-0.0436
AAAACAGC,-0.029
AATTCGGC,-0.0981

# Set 4 — method: RNA Bind-n-Seq; molecule type: RNA; sample: in vitro; tested at: 100 nM; baseline: input RNA pool; reading: higher = stronger binding
# Target: RING finger protein unkempt homolog, zinc fingers 1-6, SBP tag (UNK, Homo sapiens, UniProt Q9C0B0, residues 30-357)
# UniProt Q9C0B0, sequence (30-357, looked up): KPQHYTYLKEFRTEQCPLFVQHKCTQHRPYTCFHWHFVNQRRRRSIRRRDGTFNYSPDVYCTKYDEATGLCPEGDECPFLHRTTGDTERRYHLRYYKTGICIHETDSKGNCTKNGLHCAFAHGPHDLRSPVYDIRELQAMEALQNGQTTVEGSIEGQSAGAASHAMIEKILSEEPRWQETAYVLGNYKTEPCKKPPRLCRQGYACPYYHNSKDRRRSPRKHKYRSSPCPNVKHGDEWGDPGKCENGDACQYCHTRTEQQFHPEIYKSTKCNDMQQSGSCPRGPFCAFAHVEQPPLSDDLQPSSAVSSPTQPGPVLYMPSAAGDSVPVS
# Setting: RNA with constant flanks, vertebrate orthologous sites, ends assumed
# Shared flanks, not repeated: GGGAGUUCUACAGUCCGACGAUC … CAACAGAGGAUUGAGCAUCA
Sequence,bound/input enrichment
CUGUUGUGUGAAAUAUGUCUACCAAGAGAAGUAUCACACCAUAAACAUUGUCAAAUAAUUUAGCUACAAUCUUCUUAGAUACCAAAUCAUAUGUCAAGCAUUUAAAGUGAAUUUGAGAUG,0.673 ratio
GUGUUUUGGUACUACUCGAUGUACCAAUACUCAUCCUUUUUUCAUUAUACCAACUGUCGCUAGAAGUAGGAGUUUAAUAUUUUUAAAAAUUUUACAUUGCUGUAUAUUCAAAAUUUUAAA,0.823 ratio
CACCCCUUGAGACAGGGAGUUGAGGGGGGGAGCUCAGGAUGACCCUCAGCUGUUCCAAUCCAGUAUUUUUUUUCUUCCUUUUUAAAAAUACUGUAUUUAUUAUGACGAUGGUGACCCCCC,0.367 ratio
CAGUGCCCUGGGCCGGGACAGAUUUUUUUUUAACGUCUUGAAACUUAAACUCUGUGCUUGUAGGAUACUGUAACCUUUUUGUCUUUUUUUUUUUUUUUUUUUUUUUAAACCUCCACCUCC,3.08 ratio
GGAGAUAAUGAAUAUUAAAGAAACAUUCUCGUCUUCCUUUACCUUUUGUCCCCUUAUACCUAGUCUACUUUUUAAAUUUUCAGACUUCACUGCUUUUUGAAUUCAUAAUUCUAAUUUUCA,1.66 ratio
GAGCUAAAGGAGUUAGCAUCUUUAUUUUUGUAUUAAAGAUAAAGGUUAUUUUGGAAUUAUUAGGAUUUUUACACAACUCCAAAAUCUGUUGCUUUUGUAAACAAAGUGUUUGAUCUAGGU,0.643 ratio
AUGAAUAUAUUCACUCAGUUAAAAUUAUUUAGAUACAAAUUAUUGUUUAUGUUUUCUUUCAGCAAUCUCCUAUUUUUAUCCAUUUGAAAAUGCCAGUUUUGUGUGGUUUCUUAGCAUAUC,0.938 ratio
UGUGUCUGUACAGGGCAUCCUCUGUACUAGUUUAUUGUGGUUAUAAAAUAAUUAGUAAAACAGCUUACAUUUGUAUUUAUUUUCUAUUCCAUACUCUGUGCCCCAUGGUUUGUUUUUUUU,0.724 ratio
AUGUAGUUUGUUUUUAAUUUCAAGCAAAAUCUUAUUGUACUUGAAUGUGCCCUGUUUUGUUAGCACACCUAGACUUGCUGUAAACUGUACUCAUGUCCCAGUAUGUACGUUCUUUCUAUG,1.2 ratio
GAAAUCCCCCAUUGUCACUGAGAACCACCAAAUCUGACUUUUACAUUUGGUCUCAGAAUUUAGGUUCCUGCCCUGUUGGUUUUUUUUUUUUUUUUUUAAACAGUUUUCAAAAGUUCUUAA,1.61 ratio
UUGUGAGGAGUGGGAAAGAUGAGAUUCUUCCCCCUCCAAGUAAAACUGACGUAACUUCCUUUUAGUAUUGUCUUAGAAAACAAAGAUGCCCUUUUCUCUUAAUUGUGACACCACUAUCCC,1.97 ratio

# Set 5 — method: protein binding microarray; molecule type: double-stranded DNA, one strand shown; sample: in vitro; tested at: not given; baseline: not given; reading: higher = stronger binding
# Target: Histone acetyltransferase KAT6A, both winged helices, GST fusion (KAT6A, Homo sapiens, UniProt Q92794, residues 1-181)
# Setting: 8-mer, flanks averaged, mean of 2 arrays, mostly near background
# Target sequence (chain): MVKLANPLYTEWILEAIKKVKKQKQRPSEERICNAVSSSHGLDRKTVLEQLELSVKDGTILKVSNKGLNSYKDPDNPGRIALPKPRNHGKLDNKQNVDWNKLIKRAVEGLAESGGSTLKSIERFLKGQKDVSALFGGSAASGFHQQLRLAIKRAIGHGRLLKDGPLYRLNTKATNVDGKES
Sequence,E-score
AGCACTCC,-0.0637
AGAGGTCA,-0.049
AGCACGCC,0.0602
ATCATCGA,-0.0539
CCGCTTCA,0.131
CGAACATA,-0.12
AACCCATA,-0.235
TGAACTAA,-0.105
GTTACGGA,0.227
CCTGAAGA,-0.0726
ACCGTCTA,0.0294
AATCTCCT,-0.18
TCCAACAA,-0.182
AAATTACC,0.00303
AGGACATA,-0.148
CGGGCTGA,0.135
ATTATGTA,0.117
CAGGATGA,-0.155
TCGTCAGA,-0.0803
CCACCACA,-0.178
CGCGCAGA,0.338

# Some of these lines once more (set 3):
Sequence,E-score
AACAAGGG,-0.0474
AGGTGATA,-0.0114
CAAAAGGC,-0.213
GGGCCGTA,-0.233
AATTCGGC,-0.0981
CCGGGGCA,-0.3
AGCTAATG,-0.00519
